Measurements pooled from the literature.
Protocols differ between the studies behind these lines. ± marks the error that the study gave.
Mode: inhibitor
XDH: Xanthine dehydrogenase/oxidase (XDH, Bos taurus, UniProt P80457)
Sequence of UniProt P80457 (whole entry, looked up): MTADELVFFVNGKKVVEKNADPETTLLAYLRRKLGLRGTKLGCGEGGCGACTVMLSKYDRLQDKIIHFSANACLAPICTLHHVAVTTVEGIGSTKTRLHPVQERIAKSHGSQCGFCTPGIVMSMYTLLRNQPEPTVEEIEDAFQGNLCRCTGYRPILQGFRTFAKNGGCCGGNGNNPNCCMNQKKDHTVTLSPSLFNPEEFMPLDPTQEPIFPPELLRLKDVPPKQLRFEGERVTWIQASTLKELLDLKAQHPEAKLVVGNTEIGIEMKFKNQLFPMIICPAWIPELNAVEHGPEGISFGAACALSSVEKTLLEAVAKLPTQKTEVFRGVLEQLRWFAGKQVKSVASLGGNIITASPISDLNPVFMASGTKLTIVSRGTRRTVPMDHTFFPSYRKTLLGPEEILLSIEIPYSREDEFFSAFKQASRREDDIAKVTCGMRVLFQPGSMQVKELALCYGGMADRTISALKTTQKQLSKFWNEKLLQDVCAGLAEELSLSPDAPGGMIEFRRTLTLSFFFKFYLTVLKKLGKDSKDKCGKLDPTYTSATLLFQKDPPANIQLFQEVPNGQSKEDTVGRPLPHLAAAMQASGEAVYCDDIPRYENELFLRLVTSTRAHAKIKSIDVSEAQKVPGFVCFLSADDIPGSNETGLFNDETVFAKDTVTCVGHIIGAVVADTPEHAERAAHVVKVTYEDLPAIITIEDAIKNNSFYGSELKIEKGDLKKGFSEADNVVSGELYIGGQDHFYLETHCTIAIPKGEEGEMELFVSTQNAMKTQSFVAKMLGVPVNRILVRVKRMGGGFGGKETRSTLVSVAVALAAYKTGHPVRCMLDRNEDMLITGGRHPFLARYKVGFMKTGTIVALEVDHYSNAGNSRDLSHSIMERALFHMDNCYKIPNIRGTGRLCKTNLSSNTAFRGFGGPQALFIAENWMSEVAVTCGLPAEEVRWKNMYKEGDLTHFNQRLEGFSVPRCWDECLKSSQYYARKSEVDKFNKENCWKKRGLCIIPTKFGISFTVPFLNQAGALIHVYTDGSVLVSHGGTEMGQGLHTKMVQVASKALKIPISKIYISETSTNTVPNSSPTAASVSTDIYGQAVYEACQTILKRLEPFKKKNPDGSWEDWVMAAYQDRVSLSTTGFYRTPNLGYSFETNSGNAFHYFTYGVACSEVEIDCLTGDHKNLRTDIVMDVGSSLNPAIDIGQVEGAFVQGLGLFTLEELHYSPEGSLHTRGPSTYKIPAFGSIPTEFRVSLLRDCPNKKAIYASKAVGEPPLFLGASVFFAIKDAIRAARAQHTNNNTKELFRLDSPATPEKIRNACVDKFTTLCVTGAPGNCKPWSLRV
XDH oxidase form: Xanthine dehydrogenase/oxidase, oxidase form (XDH, Bos taurus, UniProt P80457)

The IC50 of Cc1ccc(/N=C/c2ccccc2O)cc1 is reported as 149 µM (XDH; enzyme activity).
For O=C1C=C(c2ccc(O)c(O)c2)C(O)O1 (centres unmarked), the IC50 was 367 µM (XDH; enzyme activity, absorbance).
With COc1ccc(/C=C/c2cc(O)cc(O)c2)cc1O the IC50 was 6 ± 1 µM (XDH; superoxide generation; pH 10.0, 25 °C, together with: 200 µM xanthine).
For COc1c(C)c(-c2cc(O)c3c(c2O)C(=O)C(C)=CC3=O)c(OC)c2c1C(=O)C=CC2=O, the IC50 was 1.09 µM (XDH; enzyme activity, absorbance).
For O=C(/C=C/c1ccc(O)c(O)c1)O[C@@H]1[C@H](O)C[C@@](O)(C(=O)O)C[C@H]1OC(=O)/C=C/c1ccc(O)c(O)c1, the IC50 was 69.4 µM (XDH; enzyme activity).
Nn1c(Cn2nnc3ccccc32)n[nH]c1=S has an IC50 of no more than 404 µM (XDH oxidase form; enzyme activity).
With C[C@@H]1O[C@@H](OC[C@H]2O[C@@H](Oc3cc(O)c4c(=O)cc(-c5ccc(O)c(O)c5)oc4c3)[C@H](O)[C@@H](O)[C@@H]2O)[C@H](O)[C@H](O)[C@H]1O the IC50 was 19.3 µM (XDH; enzyme activity, absorbance).
With c1ccc2[nH]nnc2c1 the IC50 was no more than 839 µM (XDH oxidase form; enzyme activity).
OCC1OC(Oc2ccc(C=Cc3cc(O)cc(O)c3)cc2)C(O)C(O)C1O (centres unmarked) has an IC50 of 11 ± 2 µM (XDH; superoxide generation; pH 10.0, 25 °C, together with: 200 µM xanthine).
Cc1nc2ccccc2c(=O)n1N has an IC50 of 340 ± 4.95 µM (XDH; enzyme activity).
COC(=O)[C@]1(O)C[C@@H](OC(=O)/C=C/c2ccc(O)c(O)c2)[C@@H](O)[C@H](OC(=O)/C=C/c2ccc(O)c(O)c2)C1 gave an IC50 of 92.1 µM (XDH; enzyme activity).
COc1ccc(CCO[C@@H]2O[C@H](CO)[C@@H](OC(=O)/C=C/c3ccc(O)c(OC)c3)[C@H](O[C@@H]3O[C@@H](C)[C@H](O)[C@@H](O)[C@H]3O)[C@H]2O)cc1O gave an IC50 of 64.5 µM (XDH; enzyme activity, absorbance).
NNC(=O)Cn1nnc2ccccc21 has an IC50 of no more than 523 µM (XDH oxidase form; enzyme activity).
The IC50 of COc1cc(/C=C/c2cc(O)cc(O)c2)ccc1O is reported as 99 µM (XDH; enzyme activity, absorbance; pH 10).

For quick reference, copied from above:
Nn1c(Cn2nnc3ccccc32)n[nH]c1=S has an IC50 of no more than 404 µM (XDH oxidase form; enzyme activity).
